Measurements of several laboratories.
Numbered parts are unrelated; each lists some results of a single study.

Set 1
Target: Ras GTPase-activating protein-binding protein 1, full length (G3BP1, Homo sapiens, UniProt Q13283)
Chain of UniProt Q13283 (whole entry, looked up): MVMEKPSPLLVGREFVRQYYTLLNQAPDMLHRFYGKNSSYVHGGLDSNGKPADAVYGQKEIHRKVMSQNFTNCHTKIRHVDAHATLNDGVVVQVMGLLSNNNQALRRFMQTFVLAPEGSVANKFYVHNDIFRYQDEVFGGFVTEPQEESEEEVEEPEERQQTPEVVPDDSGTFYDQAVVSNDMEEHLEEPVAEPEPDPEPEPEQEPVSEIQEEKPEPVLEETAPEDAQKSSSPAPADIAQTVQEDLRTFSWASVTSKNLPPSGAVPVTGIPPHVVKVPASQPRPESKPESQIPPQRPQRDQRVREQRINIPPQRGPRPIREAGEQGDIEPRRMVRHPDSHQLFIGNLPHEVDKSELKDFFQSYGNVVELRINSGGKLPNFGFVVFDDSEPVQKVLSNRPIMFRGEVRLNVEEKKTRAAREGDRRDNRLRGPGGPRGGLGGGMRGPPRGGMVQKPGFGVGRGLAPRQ
Technique: RNA Bind-n-Seq
Form: RNA
Matrix: in vitro
Tested at: 200 nM
Setting: whole 134-nt RNA, ends assumed
Added: 150 mM LiCl
Reference: input library
Reading: higher = stronger binding
Each molecule: 7-deaza-guanosine replaces G
Constant ends, left off below: GGGAGUUCUACAGUCCGACGAUC … UGGAAUUCUCGGGUGUCAAGG
Sequence	log2 enrichment
CUCAAGUCCUGUGCUACACAUCGUAUGUACCGAAUCGGCCGGGGCCGGGCCGGGAAAGUAUUAUGUUACGCCGUUCGGAUCUGCACUUCC	-0.112
GCAGGAAGUAAAAACAAAUGGAAAUGCUUCGGAUAGUGGCAGGGGUGGGGGUUGCUAAGGAAAGGGUGGGCUGGGAGUGGGUAAAGAGUU	-0.0343
CAAGUCCUGUGCUACACAUCGUAUGUACCGAAUCGGGUUUUUGGGUUUGGGUGGGAAAGUAUUAUGUUACGCCGUUCGGAUCUGCACUUC	-0.551
CUGUGCUACACAUCGUAUGUACCGAAUCGGGGAAAAAAAGGAAAAAAAGGGAAAAAAAGGGGAAAGUAUUAUGUUACGCCGUUCGGAUCU	0.375
UCCUGUGCUACACAUCGUAUGUACCGAAUCGGGGCCCCCCGGGGCCCCCCGGCCCCCCGGAAAGUAUUAUGUUACGCCGUUCGGAUCUGC	-0.172
CCUGUGCUACACAUCGUAUGUACCGAAUCAAACCCCCAAAUUUUUUUAAACCCCCCCAAAAAAGUAUUAUGUUACGCCGUUCGGAUCUGC	1.25
UCCUGUGCUACACAUCGUAUGUACCGAAUCGGGGAGGGGUUUUUUUGGGGUUUUUGGGGAAAGUAUUAUGUUACGCCGUUCGGAUCUGCA	0.89
UGGGCUGGAUGGCUCAGUUCCCCCAGACCUGGACUGGAAGGGCCAGCCACCUGCACCUCCUAAAAAGGGACUGCUGCAGAGACUCUUCAG	-0.76
CCUCAAGUCCUGUGCUACACAUCGUAUGUACCGAAUCGGGAGGAGGGGAGGGGAAAGUAUUAUGUUACGCCGUUCGGAUCUGCACUUCCA	0.345
CCUGUGCUACACAUCGUAUGUACCGAAUCGGGGUUUUUGGGGAAAAAAAGGGGAAAGGGGAAAGUAUUAUGUUACGCCGUUCGGAUCUGC	-0.214
UGAUGGGACAACACCCGAAAGGAUAGCACAAAUAACAGGACCUCCAGACCGAUGUCAACAUGCUGCAGAAAUUAUUACAGACCUUCUUCG	0.917

Set 2
Target: RNA binding protein fox-1 homolog 2, RRM domain, GST-SBP tag (RBFOX2, Homo sapiens, UniProt O43251-10, residues 100-194)
Technique: RNA Bind-n-Seq
Form: RNA
Matrix: in vitro
Tested at: 365 nM
Setting: natural RNA segment, single round, ends assumed
Reference: no-protein control
Reading: higher = stronger binding
Constant ends, left off below: GGGAGUUCUACAGUCCGACGAUC … UGGAAUUCUCGGGUGCCAA
Residues (chain): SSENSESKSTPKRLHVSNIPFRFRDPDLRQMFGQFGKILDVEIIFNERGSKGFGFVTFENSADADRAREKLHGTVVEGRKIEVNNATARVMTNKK
Sequence	RBNS enrichment (R)
AGAAAAUCUAUAAGCCUAAGUUAUGGCCCAUAGGUUUUGUUAAGGGUUUUCAGAGUGAUUUUCAGGUUUAAUUUCACUGCCUUUCAUAAGGGUAAAGUUUCACAGCUGAC	0.462
GUCCCAAAGAUCAAGUUGUCUGAAGGAGCCAAAGUGUGAAUGUGGGUGUCGGCUGCGGCAUUAAAUUCAUCAUCUCAACCCAGAGUGUCUGGUCUCCCUGCUCUUUCUGC	0.39
GCACAUCACACACGUUCUCCUUGGAAGAGAGAAGCAGUACAUCCCGGUUGAGAGGUCACAAAGCAUUAGUUUGUGUGUGUGUGUGUGUGUGUGUGUGUGUGUGUGUGUGU	2.81
CCCCUGCCCAAGCCCCAGCCUGACCCCAGUCCUUCCCUCUUGGACUCAGAGUUGGUGUGGCCUACCUGGCUAUACAUCUUCAUCCCUCCCCACCAUCCUGGGGAAGUGAU	0.458
AAGCGUGGGCGAGCAUUCUCCUCGGCAGCUCUGGGGGGGACAGAGCUAAGAGCACACAGAAUGGAUCUGACUGAGGGAGGAGACCACGGGAAAGCAAGGUUGCCUGGUAG	1.17
CUCGUGUAAGACAGGAAGAACACUUUCUCUGUAGUUUCUUUCUUUUCAUUUAUAAUUUACAAAAGUAAAGCAUUUAUUAGUGUCUGAUUUAAGAAUGUAAAGUGAUUCUG	0.598
CAGCUAUGCUUCCAAUUUUGCACAUCUUCCUUUAAAAACAGGCAACAAAACAAAACCUGAGAAAAUGCAAAACUGGAACUUUUUGCAAUAUUCUGAAAGAUAAUCUUCCU	0.904
CACCUACAGCUCAGUGGGGUUUCCAUUCACGGACUUGCUGUUCCUGUGGGCCAGUGUCGUGUGGCCUGGAGACCAUCAGGAGUCUGCACACCCACCACUUACUUGUGCCA	0.298
UGUGGUUCCUUUAAAUGCCCUUACCUCUCCCAAGAGGUUGUUUUGUUUUGUUUUCCUCCCUUUUCUCUUGAAUUUUAGCAUCCACAUAAAUUAUGCUUCCAACCUUGUAU	1.62
ACUGUUCCUGUCAGGAUUUGUUUCCCUCUGCUGUGGCGGUGACUGCUUCUGGACCAGAACAGCUCCAGCUCCCAGGUAUUUUCUACAGGACCACUUGAGUGGGCAGCCAA	0.311
AAUUUCUAAUCUCAUGAGGUCUGUGGUGCUGCAGAAUUUAUACUGCAAUGUGGACUGUUUAGAAUUCUAACCAUUUAUGAUAUUCUGGCUGUCCAGGUGAGUGGAAAUUU	0.54
AAUUCUAAAAGCCCAAUUGAGAUGUUCAGGGAGGGUUUGUUUUGCCCUUUGGCCUCAUGAAUGGGUUUCAUGAAUGGGCUUCAGUGGCUUAUAAACUCUGUAAAAUUCUA	0.32

Set 3
Target: Sal-like protein 4, full length isoform B (SALL4, Homo sapiens, UniProt Q9UJQ4-2, residues 1-616)
Technique: universal PBM
Form: double-stranded DNA, one strand shown
Matrix: in vitro
Tested at: not given
Setting: 8-mer, flanks averaged, mean of replicates
Reading: higher = stronger binding
Residues (chain): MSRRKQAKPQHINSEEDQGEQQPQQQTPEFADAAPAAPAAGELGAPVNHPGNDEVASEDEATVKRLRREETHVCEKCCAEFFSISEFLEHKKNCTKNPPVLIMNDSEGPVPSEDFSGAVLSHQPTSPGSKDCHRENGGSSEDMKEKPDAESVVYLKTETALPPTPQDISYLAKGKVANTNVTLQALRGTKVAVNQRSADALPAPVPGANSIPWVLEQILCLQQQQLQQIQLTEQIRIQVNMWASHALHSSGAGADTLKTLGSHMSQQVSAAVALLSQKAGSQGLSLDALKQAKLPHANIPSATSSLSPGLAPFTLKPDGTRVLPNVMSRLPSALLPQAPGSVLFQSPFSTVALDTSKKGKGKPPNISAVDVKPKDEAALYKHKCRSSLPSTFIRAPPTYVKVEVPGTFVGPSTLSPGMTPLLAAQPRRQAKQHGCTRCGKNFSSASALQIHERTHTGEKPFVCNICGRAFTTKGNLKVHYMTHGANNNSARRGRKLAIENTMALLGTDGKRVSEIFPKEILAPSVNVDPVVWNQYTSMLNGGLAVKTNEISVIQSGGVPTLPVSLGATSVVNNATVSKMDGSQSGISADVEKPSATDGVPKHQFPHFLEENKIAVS
Sequence	E-score
CACCACCG	-0.33
AGGGGACC	-0.337
CCGGTGCA	-0.317
CCAGTGCG	-0.392
CAGCCCTA	-0.174
AACAACTG	0.0306
ACAGAACA	0.0944
AGGCGGCG	-0.332
CCGAGTGC	-0.284
GATAGCCA	-0.216
AATAAGTC	0.212
AGATGCTC	-0.122
CTGGCGCA	-0.253
GTCACCGA	-0.218
GGGTCGCA	-0.127
GACCCTCC	-0.318
ACTCACTG	-0.0948
AACGAGAT	0.00255
GTCCCACA	-0.116
CAAGTTCA	-0.0104
ACCCAGCC	-0.306
ACTTCACC	-0.00168

Set 4
Target: RING finger protein unkempt homolog, zinc fingers 1-6, GST-SBP tag (UNK, Homo sapiens, UniProt Q9C0B0, residues 30-357)
Chain of UniProt Q9C0B0 (30-357, looked up): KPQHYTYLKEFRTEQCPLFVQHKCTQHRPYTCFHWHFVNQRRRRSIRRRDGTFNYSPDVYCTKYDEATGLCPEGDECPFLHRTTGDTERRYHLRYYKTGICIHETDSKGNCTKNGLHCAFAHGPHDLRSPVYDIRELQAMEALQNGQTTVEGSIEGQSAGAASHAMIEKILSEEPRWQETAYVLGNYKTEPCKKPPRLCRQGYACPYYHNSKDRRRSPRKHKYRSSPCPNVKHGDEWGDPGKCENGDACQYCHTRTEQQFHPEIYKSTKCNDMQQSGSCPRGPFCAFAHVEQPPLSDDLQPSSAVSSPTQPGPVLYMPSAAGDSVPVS
Technique: RNA Bind-n-Seq
Form: RNA
Matrix: in vitro
Tested at: not given
Setting: RNA with constant flanks, human and mouse sites, ends assumed
Reference: input RNA pool
Reading: higher = stronger binding
Constant ends, left off below: GGGAGUUCUACAGUCCGACGAUC … CAACAGAGGAUUGAGCAUCA
Sequence	bound/input enrichment
GUUCUUGGAUUUGAGGGGUGCUGAAGUGACACUCCUCUAUGACUUCUUUCUUCCUCCUUUUUAAUCUUACUCUCAUCCCUUUCUCUCUGUCCCAGCCUUCCUGCACCUCUCUGUCUUGUA	0.813 ratio
UGUGUCCACAUAUUUGUCCAUUUGUCUGUGUACAAUCAGUCCUGGUGAUCACAUGGACUAUAUAGUCCACAUCUCUGUAUCUUGCUGGAAAGAACCCAAAGGAGCAUCGUAUGGACACUU	0.266 ratio
AUCCCCCAGGAAUUGAACAACAUUACCAAGCUCAACGAACACUUCAGCAAAUUUGGAACCAUAGUUAAUAUCCAGGUUGCUUUUAAGGGUGAUCCAGAAGCAGCACUCAUCCAAUACCUU	0.429 ratio
UUUGGCAAAAUCUUCCCUAAACCUAAUUUGAACAUCACAGAAGAGAUUACAGAAGACUCUGAUGAAAUACCUUCACAAUUUAUUUCUAGAAAAGAGUUGGAAAAGGGUCGUAUUUCUAGA	0.326 ratio
UUUCACAGAGGCUGACCACCUUACACUGCUGGGUGGUCACAACUGCUCACCAUGUGAACAUAGUACCUCAGUUCUGUCCUUGGCUGCAAUCGUUGUGUGCUCAGUGUUUUCUCAUAGGCA	0.129 ratio
UCAGUUAAGUUGUCAGAAAACAUGAAGGCAUCUUCCUUUAAAAAGCUACAGAAGUUCUAUAUAGACCCAUACAAGCUGCUGCCGCUGCAGAGGUUUCUGCCUCGUCCUCCUGGUGAGAAA	0.267 ratio
GAAGAAUACUCCUUUGGUAGAUCAAAGAUAUUCAUCCGAAACCCAAGAACAUUAUUCAAAUUAGAAGACCUGAGGAAGCAACGCCUGGAGGACUUGGCCACUCUCAUUCAGAAGAUAUAU	1.12 ratio
UAUAAGCUGUCGGGGAACCUGACACUGCUGCGGGCCCACGUCACGGGCCCUGUGGAGGACAACGAGAAGUGCUACCCGCCGCCCAGCGUGCAGUCCUGCCCCCACGGCCUGGGCAGUACU	0.111 ratio
UGUAAAUUACCUUUACUGUGUGUACAUUUUUACUGUAUUUGAGACAUUUUUUUGUGUGUGACUAGUUAAUUUUGCAGGAUGUGCCAUAUCAAUUGAACGGAACUAAAGUCUGUGACAGUG	0.514 ratio
CCUUUAUUUUAUUUUUCAGUACAAAUUUAUAGACAUACCCAAAUUGUACUGCUGUAGUUUUUCAAACUAAGUGAAAAAUUACUUCUACCUAGAAAUGAGUAUAUUCUUCUACUUUGGAUC	10.7 ratio
GAUAACUGUCGAGAAGUGAUUAUUACACCAAAUUCUGCAUGGGGUGGAGAAGGCAGCCUAGGAUGUGGCAUUGGAUAUGGUUAUUUGCAUCGAAUACCUACACGCCCAUUUGAGGAAGGA	0.393 ratio

Excerpt of the above (set 1):
Sequence	log2 enrichment
UCCUGUGCUACACAUCGUAUGUACCGAAUCGGGGCCCCCCGGGGCCCCCCGGCCCCCCGGAAAGUAUUAUGUUACGCCGUUCGGAUCUGC	-0.172
GCAGGAAGUAAAAACAAAUGGAAAUGCUUCGGAUAGUGGCAGGGGUGGGGGUUGCUAAGGAAAGGGUGGGCUGGGAGUGGGUAAAGAGUU	-0.0343
CCUGUGCUACACAUCGUAUGUACCGAAUCGGGGUUUUUGGGGAAAAAAAGGGGAAAGGGGAAAGUAUUAUGUUACGCCGUUCGGAUCUGC	-0.214
UGAUGGGACAACACCCGAAAGGAUAGCACAAAUAACAGGACCUCCAGACCGAUGUCAACAUGCUGCAGAAAUUAUUACAGACCUUCUUCG	0.917
